# Results of several laboratories.
# Numbered parts are unrelated; each lists some results of a single study.

# Set 1
# Target: RING finger protein unkempt homolog, zinc fingers 1-6, GST-SBP tag (UNK, Homo sapiens, UniProt Q9C0B0, residues 30-357)
# Chain of UniProt Q9C0B0 (30-357, looked up): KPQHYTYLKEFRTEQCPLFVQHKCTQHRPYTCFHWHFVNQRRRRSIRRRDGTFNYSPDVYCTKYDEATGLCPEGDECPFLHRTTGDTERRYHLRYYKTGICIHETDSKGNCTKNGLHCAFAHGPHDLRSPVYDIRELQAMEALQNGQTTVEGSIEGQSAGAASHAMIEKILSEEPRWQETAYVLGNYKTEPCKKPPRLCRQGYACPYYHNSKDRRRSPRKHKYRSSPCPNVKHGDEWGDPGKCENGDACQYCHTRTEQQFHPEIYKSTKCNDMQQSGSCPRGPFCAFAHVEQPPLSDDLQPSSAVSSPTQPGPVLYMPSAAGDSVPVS
# Technique: RNA Bind-n-Seq
# Form: RNA
# Medium: in vitro
# Concentration: not given
# Setting: RNA with constant flanks, human-mouse chimeric sites, ends assumed
# Relative to: input RNA pool
# Reading: higher = stronger binding
# All sequences stand within: GGGAGUUCUACAGUCCGACGAUC … CAACAGAGGAUUGAGCAUCA
Oligonucleotide,bound/input enrichment
GACUUUGGGACUGGUCCUCGCAACGCAGCCUUCUAUAGCCCUCAUGGACAUAUAUUAGUGCUGGCUGGAUUUGGAAAUCUUCGAGGACAAAUGGAAGUGUGGGAUGUUAAAAACUACAAG,0.313 ratio
ACUCUUGACUCUUUCCAUUCUCGUCCCUUCCCUCUUGAUAUUCAAGGCCAUGAAUCCCAAAAUAACAGUCUUAGUGGGAGGCUAGCAAACAGAGGUGGAAUAAAUCCACCCCAGUGUCUC,0.418 ratio
CACACACUCUUCUGCGGGACCCUCAUCUUGCAGGCCCGGGCCUAUGUGGGACCGCACGUCCUGGCAGUGGUGACUCGGACAGGGUUCUGCACGGCAAAAGGGGGCCUGGUGAGCUCCAUC,0.117 ratio
UAAGUUAUUUUGUACAGCUUUGUAAAUUGUAUAGCUUUUUAUAUUGCACAUUUUAUGUUGUUUGGGUAAUUUGGUUCAUUAAGUACAUAGCUAAGGUAAUGAACAUCUUUUUCAGUAAUU,1.29 ratio
AAAGAACCUCUCUCUGAUGAAGAUGAGGAAGACAAUGAUGAUGUUGAACCCAUUUCUGAAUUUCGAUUUGUGCCUAGUGAUAAGUCAGCAUUGGAGGCGAUGUUCACAGCAAUGUGUGAG,0.401 ratio
GUAGCUGGGACUACAGAAAUGCUGGUAAUUUCAGUCACUUGCUGAUGACUUCUGAUGACCUAGCAAAUAAUGCCACAGUUGACUGCUGAGAAGAUACUUCUGAGGACCCACGUCUAAGGU,0.206 ratio
UGUGCAUAUGAUGCUUGAGAUGGUUUUUGCAAAAGCAGACAUCGCUGCAAGGUAAUCCUAAUAGAGAAAAGUGGUAUUUUAAACCUUUGAAAUAAAUGGAUGUAACUGUACCUUGGUACA,1.4 ratio
GUGACUGGUGUUAAGAUUUACCCUCAGCAAAGAAGUGCAGUAGUCACCAUAAUUCCAUCUGUGGUGAGUGCCAGUCAGAUAAAAGAGCUGGUCCCAGACCUCAGUUUAGACAUGGGAACU,0.352 ratio

# Set 2
# Target: Interferon regulatory factor 7, full length, phosphomimetic (IRF7, Homo sapiens, UniProt Q92985, residues 1-503, S101K/S471D/S472D/S475D/S476D/S477D/S483D/S484D/S487D)
# Chain of UniProt Q92985 (whole entry, unmodified, looked up): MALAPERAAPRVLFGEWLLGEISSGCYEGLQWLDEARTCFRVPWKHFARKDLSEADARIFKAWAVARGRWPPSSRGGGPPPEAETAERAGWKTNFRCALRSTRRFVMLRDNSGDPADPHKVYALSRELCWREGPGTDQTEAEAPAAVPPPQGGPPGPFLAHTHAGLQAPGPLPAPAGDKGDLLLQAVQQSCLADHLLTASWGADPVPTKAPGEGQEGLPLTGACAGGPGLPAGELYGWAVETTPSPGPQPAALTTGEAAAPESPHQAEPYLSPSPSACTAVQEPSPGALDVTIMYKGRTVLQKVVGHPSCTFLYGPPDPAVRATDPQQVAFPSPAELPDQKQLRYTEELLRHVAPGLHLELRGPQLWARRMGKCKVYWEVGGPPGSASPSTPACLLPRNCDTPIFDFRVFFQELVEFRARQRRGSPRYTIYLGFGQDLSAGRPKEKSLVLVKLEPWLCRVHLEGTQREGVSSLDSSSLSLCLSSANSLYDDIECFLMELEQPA
# Technique: protein-binding microarray
# Form: double-stranded DNA, one strand shown
# Medium: in vitro
# Concentration: 250 nM
# Setting: 60-bp whole probe
# Added: salmon DNA 0.4 mg/ml
# Relative to: random background probes
# Reading: higher = stronger binding
# All sequences stand within: GCCTAGCAC … GTCTTGATTCGCTTGACGCTGCTG
Oligonucleotide,log fluorescence [z-score]
TTAAGTTTCGGACTGGGTTAGTGCTAG,4.57
GACGGACTGCTTCTCCTGTCGTGCTAG,-0.0384
GACGATATCAGTATCGTGACGTGCTAG,-0.159
TCAATTATTGTTTCCTTACTGTGCTAG,1.28
GACGGACTGAACACTGGGGACGTGCTA,-0.708
TTATGTATCGACTTTCGGTTAGTGCTA,1.95
TTAGGTTTCGGTTCTGGTTAGTGCTAG,12.7
TTAGATATCAGACTGTATTAGTGCTAG,0.0941
TTAGACCTGGGGTTTCGATTAGTGCTA,5.53
GACGGACTGGACTATCGGAACGTGCTA,-0.532
CCAGTGCTTGCTCCCCTGCAGTGCTAG,-0.934
ATGTCTTCCCCTCTCTTTCCGTGCTAG,1.28
GACGGCATCGGGTATCGGGACGTGCTA,-0.596
TTAGGACTTGACTATCGGTTAGTGCTA,-0.189
TTTGATTTCGGGTATCGATTAGTGCTA,1.94
TTAGGTAGCCTACTGCTTTAGTGCTAG,-0.813
GGCCCTTTGCTTTCCTGATGGTGCTAG,-0.122
GACGTTTTCGGGTTTCGGGACGTGCTA,5.64
TTAGATTTCACTCTCGATTAGTGCTAG,1.24
TTAGATATCAGACTGGACTAGTGCTAG,-0.0996
GACGAAGTGGGGACTGGAGACGTGCTA,-0.798

# Set 3
# Target: Ras GTPase-activating protein-binding protein 1, RRM domain (G3BP1, Homo sapiens, UniProt Q13283)
# Chain of UniProt Q13283 (whole entry, looked up): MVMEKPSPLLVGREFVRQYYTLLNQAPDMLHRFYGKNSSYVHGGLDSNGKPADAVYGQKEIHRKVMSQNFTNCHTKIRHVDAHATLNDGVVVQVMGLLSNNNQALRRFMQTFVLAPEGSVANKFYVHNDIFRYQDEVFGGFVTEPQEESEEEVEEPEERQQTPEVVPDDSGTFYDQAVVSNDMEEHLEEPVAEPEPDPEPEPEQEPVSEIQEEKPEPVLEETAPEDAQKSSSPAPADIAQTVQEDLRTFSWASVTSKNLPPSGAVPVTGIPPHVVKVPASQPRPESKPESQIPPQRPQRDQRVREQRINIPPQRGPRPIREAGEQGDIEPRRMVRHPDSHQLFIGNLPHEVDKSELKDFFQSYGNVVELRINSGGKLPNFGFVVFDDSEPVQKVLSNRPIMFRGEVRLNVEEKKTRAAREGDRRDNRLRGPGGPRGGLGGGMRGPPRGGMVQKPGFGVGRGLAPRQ
# Technique: RNA Bind-n-Seq
# Form: RNA
# Medium: in vitro
# Concentration: 1 µM
# Setting: whole 134-nt RNA, ends assumed
# Added: 150 mM KCl
# Relative to: input library
# Reading: higher = stronger binding
# All sequences stand within: GGGAGUUCUACAGUCCGACGAUC … UGGAAUUCUCGGGUGUCAAGG
Oligonucleotide,log2 enrichment
AGUCCUGUGCUACACAUCGUAUGUACCGAAUCGGUUUUUGGGUUUUUGGUUUUUGGGAAAGUAUUAUGUUACGCCGUUCGGAUCUGCACU,-0.193
UCCUGUGCUACACAUCGUAUGUACCGAAUCGGGGAAAGGGGAAAAAAAGGGGAAAGGGGAAAGUAUUAUGUUACGCCGUUCGGAUCUGCA,0.871
CCUGUGCUACACAUCGUAUGUACCGAAUCGGCCCCCCCGGCCCCCCCGGGGCCCCCCCGGAAAGUAUUAUGUUACGCCGUUCGGAUCUGC,-0.552
UCCUGUGCUACACAUCGUAUGUACCGAAUCGGGGAAAAAAGGAAAAAAGGAAAAAAGGGGAAAGUAUUAUGUUACGCCGUUCGGAUCUGC,0.0371
CUCAAGUCCUGUGCUACACAUCGUAUGUACCGAAUCGGGGCCGGGCCGGGCCGGAAAGUAUUAUGUUACGCCGUUCGGAUCUGCACUUCC,-1.03
CCUGUGCUACACAUCGUAUGUACCGAAUCGGGUUUUUUUGGGUUUUUUUGGUUUUUUUGGAAAGUAUUAUGUUACGCCGUUCGGAUCUGC,-0.121
UUACUUUAGAGGAGGAUCUGAUGGAUAUGGCAGUGGACGUGGAUUUGGGGAUGGCUAUAAUGGGUAUGGAGGAGGACCUGGAGGUGGCAA,-0.73
UGGCCCUGGUGGCAUGCGGGGAGGAAGAGGUGGCCUCGUGGAUCGUGGUGGUCCCGGUGGAAUGUUCAGAGGUGGCCGUGGUGGAGACAG,0.845
CAAGUCCUGUGCUACACAUCGUAUGUACCGAAUCGGGAAAAAGGGUGGGUUUGGGAAAGUAUUAUGUUACGCCGUUCGGAUCUGCACUUC,0.904
GUCCUGUGCUACACAUCGUAUGUACCGAAUCGGGGAGGGGAAAAAGGGGAAAAAGGGGAAAGUAUUAUGUUACGCCGUUCGGAUCUGCAC,0.956
UAACUUUAUAGGAGGAUCUGAUGGAUAUGGCAGUGGACGUGGAUUUGGGGAUGGCUAUAAUGGGUAUGGAGGAGGACCUGGAGGUGGCAA,-0.731
UGGGAGGUGGAUUUUGUUUAUUUUUUUAGCUCAUUUCCAGGGGUGGGAAUUUUUUUUUAAUAUGUGUCAUCAAUAAAGUUGUUUUUGAAA,1.59
UGUGCUACACAUCGUAUGUACCGAAUCGUGUGUGUGUGUGUGUGUGUGUGUGUGUGUGUGUGUAAAGUAUUAUGUUACGCCGUUCGGAUC,0.291
UUCCCUGAAGAUGAGAUCCCAGAGAAGGCCUGCAGGCGCCUGCUUGAAGGGAGGCGGCAGAAGAAGACGAAGAAGCAGAAGCGUCUGCUC,-0.0309

# Set 4
# Target: Histone acetyltransferase KAT6A, winged helix 1, GST fusion (KAT6A, Homo sapiens, UniProt Q92794, residues 1-85)
# Technique: protein binding microarray
# Form: double-stranded DNA, one strand shown
# Medium: in vitro
# Concentration: not given
# Setting: 8-mer, flanks averaged, mean of 2 arrays, mostly near background
# Relative to: not given
# Reading: higher = stronger binding
# Target sequence (chain): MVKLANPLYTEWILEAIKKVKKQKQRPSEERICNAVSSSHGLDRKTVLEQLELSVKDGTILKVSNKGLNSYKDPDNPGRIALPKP
Oligonucleotide,E-score
CGGACAGA,0.153
AAAAGCGT,0.0537
ATCTACTC,0.0348
AATCGTAA,-0.102
CAGCCTGG,-0.0651
CTTTGATC,-0.199
CGGTAGAA,0.0799
CGTATTGA,-0.0627
AGAATGAG,-0.216
GCTAACTA,0.036
ATACCGTA,0.211
CAGCGATC,0.146
GCACGTGA,-0.225
CAACACAC,-0.135
CACCAAGG,-0.0726
CACCGAGC,0.0697
ATGATCGC,0.111
ACTAGATG,-0.165
CCAGTAGA,-0.256
GGCACGCC,0.299
GACGCATA,0.165
AATGTGGC,0.0365
ACGGGTCA,0.194
AATGGTGT,-0.287
GGGACGTA,0.157

# Set 5
# Target: Sal-like protein 4, full length isoform A (SALL4, Homo sapiens, UniProt Q9UJQ4, residues 1-1053)
# Chain of UniProt Q9UJQ4 (whole entry, looked up): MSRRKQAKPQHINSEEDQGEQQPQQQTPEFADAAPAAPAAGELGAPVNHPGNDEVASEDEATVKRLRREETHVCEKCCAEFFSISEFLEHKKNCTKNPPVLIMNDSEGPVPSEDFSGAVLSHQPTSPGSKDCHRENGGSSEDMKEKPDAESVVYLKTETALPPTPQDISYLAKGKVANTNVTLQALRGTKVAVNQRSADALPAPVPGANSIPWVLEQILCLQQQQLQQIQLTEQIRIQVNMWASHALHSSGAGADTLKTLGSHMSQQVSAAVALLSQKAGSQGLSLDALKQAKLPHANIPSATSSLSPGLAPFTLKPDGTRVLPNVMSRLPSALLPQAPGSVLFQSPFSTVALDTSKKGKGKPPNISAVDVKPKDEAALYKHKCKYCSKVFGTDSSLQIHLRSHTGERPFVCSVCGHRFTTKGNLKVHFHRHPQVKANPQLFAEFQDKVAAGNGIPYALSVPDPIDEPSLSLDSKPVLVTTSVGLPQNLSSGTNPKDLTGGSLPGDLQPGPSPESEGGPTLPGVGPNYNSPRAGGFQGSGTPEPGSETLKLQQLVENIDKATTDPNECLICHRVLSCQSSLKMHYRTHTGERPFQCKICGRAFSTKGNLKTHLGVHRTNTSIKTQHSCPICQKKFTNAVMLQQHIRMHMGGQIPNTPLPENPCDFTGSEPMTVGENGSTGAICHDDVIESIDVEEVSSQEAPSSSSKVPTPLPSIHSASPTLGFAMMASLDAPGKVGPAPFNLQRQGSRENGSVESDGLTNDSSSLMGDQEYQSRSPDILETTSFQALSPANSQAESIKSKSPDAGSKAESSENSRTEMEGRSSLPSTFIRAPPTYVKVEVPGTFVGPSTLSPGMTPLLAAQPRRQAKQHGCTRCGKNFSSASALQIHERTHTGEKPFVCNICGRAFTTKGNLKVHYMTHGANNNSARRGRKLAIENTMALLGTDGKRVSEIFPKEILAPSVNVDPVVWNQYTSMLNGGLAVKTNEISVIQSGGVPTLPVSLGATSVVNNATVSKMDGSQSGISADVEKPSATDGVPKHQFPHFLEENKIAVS
# Technique: universal PBM
# Form: double-stranded DNA, one strand shown
# Medium: in vitro
# Concentration: 600 nM
# Setting: 8-mer, flanks averaged, mean of replicates
# Reading: higher = stronger binding
Oligonucleotide,E-score
CGACTCTA,-0.103
ACGCATTC,0.0121
AAAGAGTT,0.139
CTTCACTC,-0.0369
GCCGTCGC,-0.308
ACAGAACG,-0.11
GCTCGAAC,-0.124
CTAGGTTC,-0.266
CAGGTCTA,0.0205
GGGCTACA,-0.191
AAAGATGA,0.251
ACGAACAC,0.0415
ACGGCGAA,-0.0379
GGCCAACC,-0.315
AGGGACGA,-0.125
CGCGGCTA,-0.278
GAGTCTTA,-0.0167
AATCTGCT,0.0922
GTTAACAA,0.183
CTCTACGC,-0.14
